Results collected from several papers.
Chain of UniProt O15075 (whole entry, looked up): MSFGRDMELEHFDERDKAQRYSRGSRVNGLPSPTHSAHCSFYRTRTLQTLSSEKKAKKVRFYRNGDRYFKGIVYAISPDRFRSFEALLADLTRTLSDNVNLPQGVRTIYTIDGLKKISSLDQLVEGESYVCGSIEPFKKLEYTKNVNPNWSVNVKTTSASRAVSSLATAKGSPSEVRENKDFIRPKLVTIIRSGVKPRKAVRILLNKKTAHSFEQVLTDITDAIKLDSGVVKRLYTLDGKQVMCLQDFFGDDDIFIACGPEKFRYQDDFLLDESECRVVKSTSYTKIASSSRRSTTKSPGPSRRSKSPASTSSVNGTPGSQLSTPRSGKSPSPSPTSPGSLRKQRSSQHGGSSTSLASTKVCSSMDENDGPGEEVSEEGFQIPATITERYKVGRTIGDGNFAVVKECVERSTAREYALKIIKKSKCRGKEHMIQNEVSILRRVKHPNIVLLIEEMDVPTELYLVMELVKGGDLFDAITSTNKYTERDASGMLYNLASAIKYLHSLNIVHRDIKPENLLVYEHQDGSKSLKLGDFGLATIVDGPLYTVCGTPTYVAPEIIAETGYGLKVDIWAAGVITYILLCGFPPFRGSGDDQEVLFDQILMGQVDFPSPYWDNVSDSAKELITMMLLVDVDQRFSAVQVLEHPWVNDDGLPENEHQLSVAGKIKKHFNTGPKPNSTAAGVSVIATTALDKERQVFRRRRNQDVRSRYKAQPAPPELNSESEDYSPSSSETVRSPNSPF

For CCC(=CCc1c(O)cc2c(c1O)C(=O)C[C@H](c1ccccc1O)O2)CC, the inhibition was -3.13% (HeLa; cell growth or viability, MTT; 0.938 µM, 48 h).
With CCCOc1ccc2c(C)c(CC)c(=O)oc2c1C the viability was 96.7% (PC-3; cell growth or viability, MTT; 62.5 µg/mL).
CC(=NNC(=O)c1ccccc1)c1ccc(Nc2nnc(-c3ccc(Cl)cc3)c3ccccc23)cc1 gave a viability of 50.8% (MCF7; cell growth or viability, MTT; 1.25 µM, 24 h).
Cc1c(C(=O)Nc2ccc(N3C[C@@H](C)O[C@@H](C)C3)nc2)cccc1-c1ccc(OC(F)(F)F)cc1 has an IC50 of greater than 10 µM (HD-MB03; cell growth or viability; 7 days).
For Cc1[nH]c(C)c(-c2ccc(-c3ccc(OC(F)(F)F)cc3)cc2)c(=O)c1Cl, the IC50 was greater than 10 µM (HEK293; cell growth or viability).
For CNc1ncc2c(/C=C/C(=O)N3CCCC(N(C)C)C3)nn(CC3CCCC3)c2n1 (stereo not shown), the EC50 was 16.7 µM (FLO-1; cell growth or viability, resazurin; 5 days).
The inhibition of Cc1nc(Nc2ncc(C(=O)Nc3c(C)cccc3Cl)s2)cc(N2CC[C@H](O)C2)n1 is reported as 34% (KARPAS-299; cell growth or viability, ATP luminescence; 10 µM, 72 h).
With CC(=NNC(=O)c1cccnc1)c1ccc(Nc2nnc(-c3ccc(Cl)cc3)c3ccccc23)cc1 the viability was 4.87% (MCF7; cell growth or viability, MTT; 10 µM, 24 h).
The viability of C=CCNC(=S)NNC(=O)COc1ccc2c(C)c(CC)c(=O)oc2c1C is reported as 13.7% (PC-3; cell growth or viability, MTT; 250 µg/mL).
For C=C(COCc1ccccc1)[C@@H]1CC[C@@H](C)C[C@H]1OCc1ccccc1, the inhibition was 29.7% (A2780; cell growth or viability, MTT; 30 µM, 72 h).
For COc1cc(-c2cncc3c2CN(C)Cc2cc(N4CCNCC4)ccc2-3)cc(OC)c1OC, the remaining activity was 101% (Serine/threonine-protein kinase DCLK1 (DCLK1, Homo sapiens, UniProt O15075); enzyme activity, inhibitor; 1 µM).
The viability of CC(C)(C)c1nc(-c2cccc(NS(=O)(=O)c3c(F)cccc3F)c2F)c(-c2ccnc(N)n2)s1 is reported as 73.4% (WM 266-4; cell growth or viability, MTT; 0.4 µM, 48 h).
With OCc1ccc(-c2nn(Cc3cccnc3)c3ccccc23)o1 the inhibition was 75% (RBE; cell growth or viability, ATP luminescence; 46 µM, 72 h).
The EC50 of CNc1ncc2c(/C=C/C(=O)N3CCC(OC)CC3)nn(CC(OC)OC)c2n1 is reported as greater than 30 µM (FLO-1; cell growth or viability, resazurin; 5 days).
OCc1ccc(-c2cn(Cc3ccccc3)c3ccccc23)o1 gave an inhibition of 85% (RBE; cell growth or viability, ATP luminescence; 46 µM, 72 h).
For CC(=NNC(N)=S)c1ccc(Nc2nnc(-c3ccc(Cl)cc3)c3ccccc23)cc1, the viability was 90.3% (MCF7; cell growth or viability, MTT; 78 nM, 24 h).
C[C@@H]1CC[C@@H]([C@@](O)(CNCc2cccc3ccccc23)COCc2ccccc2)[C@H](OCc2ccccc2)C1 has an inhibition of 98.5% (A2780; cell growth or viability, MTT; 30 µM, 72 h).
CC(=O)Nc1ccc(Oc2nnc(-c3ccc(Cl)cc3)c3ccccc23)cc1 gave a viability of 79.4% (MCF7; cell growth or viability, MTT; 78 nM, 24 h).
N#Cc1ccc(N2CCN(Cc3ccc(-c4ccc(-c5nc6cc(C(F)(F)F)ccc6[nH]5)cc4)cc3)CC2)nc1 has an IC50 of greater than 10 µM (HEK293; cell growth or viability).
With CC(=NNC(=O)c1ccncc1)c1ccc(Nc2nnc(-c3ccc(Cl)cc3)c3ccccc23)cc1 the cell death was 91.6% (MCF7; cell growth or viability, MTT; 0.312 µM).
For Nc1ncnc2c1c(/C=C/C(=O)O)nn2CC1CCCC1, the EC50 was greater than 30 µM (FLO-1; cell growth or viability, resazurin; 5 days).
For O=C(Nc1ccc(Oc2nnc(-c3ccc(Cl)cc3)c3ccccc23)cc1)c1ccccc1, the viability was 86.5% (MCF7; cell growth or viability, MTT; 78 nM, 24 h).
With C=CCOc1ccc2c(C)c(CC)c(=O)oc2c1C the viability was 36.7% (PC-3; cell growth or viability, MTT; 250 µg/mL).
With O=C(C=Cc1ccccc1)Nc1ccc(Oc2nnc(-c3ccc(Cl)cc3)c3ccccc23)cc1 the viability was 21.2% (MCF7; cell growth or viability, MTT; 2.5 µM, 24 h).
The IC50 of N#Cc1ccc(CN2CCC(Oc3ccc(NC(=O)c4cccs4)cc3Cl)CC2)cc1 is reported as greater than 10 µM (HEK293; cell growth or viability).

A few entries again:
With C=CCOc1ccc2c(C)c(CC)c(=O)oc2c1C the viability was 36.7% (PC-3; cell growth or viability, MTT; 250 µg/mL).
With O=C(C=Cc1ccccc1)Nc1ccc(Oc2nnc(-c3ccc(Cl)cc3)c3ccccc23)cc1 the viability was 21.2% (MCF7; cell growth or viability, MTT; 2.5 µM, 24 h).
The IC50 of N#Cc1ccc(CN2CCC(Oc3ccc(NC(=O)c4cccs4)cc3Cl)CC2)cc1 is reported as greater than 10 µM (HEK293; cell growth or viability).
